# Values quoted from earlier work, collected from citations in different studies.
# Compare with care: the assays were run in different laboratories.
# B1: CCL1; sequence looked up; chain KSMQVPFSRCCFSFAEQEIPLRAILCYRNTSSICSNEGLIFKLKRGKEACALDTVGWVQRHRKMLRHCPSKRK
Substance,tested on,assay,test system,conditions,endpoint,result
GINLKRKGNIMKKVKNIFHKIANADPMIWGYVMLSESK,Staphylococcus aureus,,"peptide, ATCC 6538",,MIC,4 µM
pegcetacoplan,,,human,"repeated dosing, 30 mg/day for 28 days, approximate",AUC(0-29 d),28000 µg·h/mL
SVIWRKLFFIFIKRSGNWIKKVEKRQNLL,Pseudomonas aeruginosa,,"peptide, ATCC 15692",,MIC,1 µM
B1 (CCL1),CCR8 K193A mutant,"IP accumulation, agonist",,,EC50,22 nM
RQIKIWFQIRRWKWKK,Staphylococcus aureus,,"peptide, methicillin-resistant",,MIC,31.2 µg/mL
LAHAAHFR,,"isocratic RP-HPLC, C18 column","peptide, water/acetonitrile, 0.1% TFA",25 °C,retention coefficient S,21.1
RWIKIWFQWRRWKWKK,Staphylococcus aureus,,"peptide, methicillin-resistant",,MIC,46.9 µg/mL
LAGSASAHAFR,,"isocratic RP-HPLC, C18 column","peptide, water/acetonitrile, 0.1% TFA",25 °C,retention coefficient S,21.3

# A few entries again:
Substance,tested on,assay,test system,conditions,endpoint,result
LAHAAHFR,,"isocratic RP-HPLC, C18 column","peptide, water/acetonitrile, 0.1% TFA",25 °C,retention coefficient S,21.1
